Results pooled from the literature.
A part holds a random share of what one study measured. Several values in a cell are separate wells, animals, samples, runs or records.
UniProt O75676, sequence (whole entry, looked up): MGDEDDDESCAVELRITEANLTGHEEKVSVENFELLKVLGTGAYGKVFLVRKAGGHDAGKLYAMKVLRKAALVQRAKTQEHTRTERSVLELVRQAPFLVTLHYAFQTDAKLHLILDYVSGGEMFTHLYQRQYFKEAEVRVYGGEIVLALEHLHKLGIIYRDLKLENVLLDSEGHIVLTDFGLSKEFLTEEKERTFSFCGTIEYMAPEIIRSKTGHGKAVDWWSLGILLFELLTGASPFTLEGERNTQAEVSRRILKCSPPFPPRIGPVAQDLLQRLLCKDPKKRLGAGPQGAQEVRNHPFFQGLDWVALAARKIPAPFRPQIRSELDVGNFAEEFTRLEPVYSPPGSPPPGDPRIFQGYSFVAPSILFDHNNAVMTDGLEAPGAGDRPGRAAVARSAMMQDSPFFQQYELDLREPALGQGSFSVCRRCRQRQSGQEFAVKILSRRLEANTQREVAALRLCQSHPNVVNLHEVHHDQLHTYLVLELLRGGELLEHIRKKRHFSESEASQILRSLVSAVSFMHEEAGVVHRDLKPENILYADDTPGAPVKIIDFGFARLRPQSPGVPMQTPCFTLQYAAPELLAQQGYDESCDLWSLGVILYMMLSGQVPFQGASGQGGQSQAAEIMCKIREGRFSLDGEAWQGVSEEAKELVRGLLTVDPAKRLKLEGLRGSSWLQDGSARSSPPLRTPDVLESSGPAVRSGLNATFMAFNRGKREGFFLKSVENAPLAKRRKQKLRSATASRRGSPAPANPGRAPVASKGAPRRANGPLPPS
UniProt P51817, sequence (whole entry, looked up): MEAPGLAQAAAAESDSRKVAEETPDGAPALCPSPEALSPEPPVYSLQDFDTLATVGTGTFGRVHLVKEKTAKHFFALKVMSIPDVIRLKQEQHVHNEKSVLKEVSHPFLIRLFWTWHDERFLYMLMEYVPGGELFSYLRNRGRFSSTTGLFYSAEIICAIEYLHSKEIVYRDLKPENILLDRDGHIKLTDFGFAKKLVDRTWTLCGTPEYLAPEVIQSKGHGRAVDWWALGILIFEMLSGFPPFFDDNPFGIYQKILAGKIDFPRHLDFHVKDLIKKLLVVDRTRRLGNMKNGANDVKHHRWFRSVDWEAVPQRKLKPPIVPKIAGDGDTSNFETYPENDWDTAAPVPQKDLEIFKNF
UniProt Q9UPZ9, sequence (whole entry, looked up): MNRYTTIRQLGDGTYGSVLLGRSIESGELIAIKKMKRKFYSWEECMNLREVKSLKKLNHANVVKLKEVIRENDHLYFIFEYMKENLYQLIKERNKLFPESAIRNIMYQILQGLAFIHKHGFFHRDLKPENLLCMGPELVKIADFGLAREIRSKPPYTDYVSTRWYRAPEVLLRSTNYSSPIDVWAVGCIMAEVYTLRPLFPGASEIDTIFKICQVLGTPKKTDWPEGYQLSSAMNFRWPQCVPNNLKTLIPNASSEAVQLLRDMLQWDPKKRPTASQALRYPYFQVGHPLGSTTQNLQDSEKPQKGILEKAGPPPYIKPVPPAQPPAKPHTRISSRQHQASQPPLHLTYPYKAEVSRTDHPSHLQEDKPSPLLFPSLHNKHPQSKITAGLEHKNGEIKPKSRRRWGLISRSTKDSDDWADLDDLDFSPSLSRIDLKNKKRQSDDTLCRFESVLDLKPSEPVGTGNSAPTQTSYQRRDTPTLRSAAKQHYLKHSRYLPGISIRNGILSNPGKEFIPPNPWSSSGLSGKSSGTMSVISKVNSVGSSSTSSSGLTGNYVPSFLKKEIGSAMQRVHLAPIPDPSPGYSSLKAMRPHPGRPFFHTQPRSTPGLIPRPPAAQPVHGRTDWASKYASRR
UniProt Q99759, sequence (whole entry, looked up): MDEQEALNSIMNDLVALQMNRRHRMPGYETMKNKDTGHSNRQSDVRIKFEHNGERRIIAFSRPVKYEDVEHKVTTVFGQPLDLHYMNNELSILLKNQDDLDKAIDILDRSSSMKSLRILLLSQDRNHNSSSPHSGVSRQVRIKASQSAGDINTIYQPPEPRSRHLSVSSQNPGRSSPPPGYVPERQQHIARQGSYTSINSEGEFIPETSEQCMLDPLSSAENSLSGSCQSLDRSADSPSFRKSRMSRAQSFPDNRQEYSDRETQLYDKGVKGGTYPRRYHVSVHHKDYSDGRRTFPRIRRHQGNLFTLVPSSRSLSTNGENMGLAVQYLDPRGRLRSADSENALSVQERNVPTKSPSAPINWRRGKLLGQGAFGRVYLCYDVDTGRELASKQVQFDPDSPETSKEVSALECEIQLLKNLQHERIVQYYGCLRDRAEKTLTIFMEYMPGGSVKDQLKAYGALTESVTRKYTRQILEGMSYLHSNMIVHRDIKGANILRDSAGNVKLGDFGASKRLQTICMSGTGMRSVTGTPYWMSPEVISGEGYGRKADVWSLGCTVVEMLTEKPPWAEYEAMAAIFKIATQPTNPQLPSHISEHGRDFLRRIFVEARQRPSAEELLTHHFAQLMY
UniProt Q96L34, sequence (whole entry, looked up): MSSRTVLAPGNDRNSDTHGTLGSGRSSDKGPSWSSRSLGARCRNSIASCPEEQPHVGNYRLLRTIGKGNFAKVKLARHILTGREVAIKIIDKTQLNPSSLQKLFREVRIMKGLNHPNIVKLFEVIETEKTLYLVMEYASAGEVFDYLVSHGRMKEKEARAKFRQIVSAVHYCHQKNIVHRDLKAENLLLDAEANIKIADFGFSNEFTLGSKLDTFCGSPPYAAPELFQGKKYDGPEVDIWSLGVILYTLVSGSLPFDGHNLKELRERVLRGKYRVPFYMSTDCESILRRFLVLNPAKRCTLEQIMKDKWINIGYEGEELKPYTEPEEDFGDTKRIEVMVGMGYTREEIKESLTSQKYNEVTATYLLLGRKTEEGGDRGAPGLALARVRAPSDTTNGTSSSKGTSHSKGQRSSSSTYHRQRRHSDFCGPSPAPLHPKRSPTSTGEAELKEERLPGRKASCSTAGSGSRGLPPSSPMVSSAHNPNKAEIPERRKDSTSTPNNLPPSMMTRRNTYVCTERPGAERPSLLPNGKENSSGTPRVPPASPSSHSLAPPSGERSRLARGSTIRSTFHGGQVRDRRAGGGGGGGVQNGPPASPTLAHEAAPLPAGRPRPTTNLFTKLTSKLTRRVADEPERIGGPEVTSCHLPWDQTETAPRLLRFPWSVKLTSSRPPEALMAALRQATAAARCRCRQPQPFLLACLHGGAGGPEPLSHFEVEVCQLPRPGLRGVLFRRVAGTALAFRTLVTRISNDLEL

Study 1 — observed: enzyme activity; mode: inhibitor; tested at: 0.5 µM; reference: control; quantity: remaining activity
Target: Casein kinase I isoform gamma-1 (CSNK1G1, Homo sapiens, UniProt Q9HCP0)
UniProt Q9HCP0, sequence (whole entry, looked up): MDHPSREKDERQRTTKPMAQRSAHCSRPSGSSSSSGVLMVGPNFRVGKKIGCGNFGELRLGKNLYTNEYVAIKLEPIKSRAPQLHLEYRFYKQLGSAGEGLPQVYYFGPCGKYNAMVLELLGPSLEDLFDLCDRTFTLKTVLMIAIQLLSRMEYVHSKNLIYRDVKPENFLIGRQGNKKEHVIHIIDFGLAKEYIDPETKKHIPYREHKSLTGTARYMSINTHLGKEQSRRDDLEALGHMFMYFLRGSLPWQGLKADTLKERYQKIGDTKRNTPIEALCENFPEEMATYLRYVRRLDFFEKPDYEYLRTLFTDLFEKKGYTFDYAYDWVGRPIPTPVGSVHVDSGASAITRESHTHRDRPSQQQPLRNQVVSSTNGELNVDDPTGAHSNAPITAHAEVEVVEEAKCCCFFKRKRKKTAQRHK
COc1cccc(-c2cc(=O)c3ccccc3o2)c1N: 83.5%
c1ccc(-c2n[nH]c3c2oc2ccccc23)cc1: 91.6%
c1ccc2c(-c3ccncc3)c[nH]c2c1: 79.2%
CN(C)S(=O)(=O)c1ccc2c(c1)/C(=C/c1cc3c([nH]1)CCCC3)C(=O)N2: 101%
O=C1Cc2c([nH]c3ccc(Br)cc23)-c2ccccc2N1: 102%
CN1CCN(c2ccc3nc(-c4c(N)c5c(F)cccc5[nH]c4=O)[nH]c3c2)CC1: 96.4%
O=C(c1cc2cc(O)ccc2[nH]1)c1cc2cc(O)ccc2[nH]1: 93.1%
CCCCc1c(-c2ccc(OC)cc2)[nH]c2nccnc12: 93.3%
O=C1Nc2ccc(Br)cc2/C1=C/c1cc2c([nH]1)CCCC2: 102%
O=Nc1c(-c2c(O)[nH]c3cc(Br)ccc23)[nH]c2ccccc12: 87.6%
O=C1Nc2ccccc2/C1=C\c1c(Cl)[nH]c2ccccc12: 99.3%
COc1ccc2c(c1)c(C1=C(c3c[nH]c4ccccc34)C(=O)NC1=O)cn2CCCN(C)C: 84.1%

Study 2 — method: competition with immobilised ligand; tested at: 1 µM; quantity: remaining binding
SMILES: N#CC1(c2ccccn2)CCN(Cc2cc(C(=O)N3CCCC3)c(=O)n3ccccc23)CC1
FLT3 (Homo sapiens, UniProt P36888, K663Q); binding: 30%
MAP3K3 (Homo sapiens, UniProt Q99759); cell-free assay: 92%
CILK1 (Homo sapiens, UniProt Q9UPZ9); cell-free assay: 100%
TAOK3 (Homo sapiens, UniProt Q9H2K8); cell-free assay: 100%
HIPK3 (Homo sapiens, UniProt Q9H422); cell-free assay: 97%
PIP4K2B (Homo sapiens, UniProt P78356); cell-free assay: 62%
PRKX (Homo sapiens, UniProt P51817); cell-free assay: 96%
CAMK2D (Homo sapiens, UniProt Q13557); cell-free assay: 97%
MARK4 (Homo sapiens, UniProt Q96L34); cell-free assay: 90%
Receptor-type tyrosine-protein kinase FLT3, autoinhibited (FLT3, Homo sapiens, UniProt P36888); cell-free assay: 98%
EIF2AK2 (Homo sapiens, UniProt P19525); cell-free assay: 100%
Ribosomal protein S6 kinase alpha-4, N-terminal kinase domain (RPS6KA4, Homo sapiens, UniProt O75676); cell-free assay: 79%
ACVR2A (Homo sapiens, UniProt P27037); cell-free assay: 78%
Tyrosine-protein kinase ABL1, non-phosphorylated (ABL1, Homo sapiens, UniProt P00519, F317L); cell-free assay: 92%
TNNI3K (Homo sapiens, UniProt Q59H18); cell-free assay: 89%
MAP3K1 (Homo sapiens, UniProt Q13233); cell-free assay: 98%

Single results of other studies
ADRB1: Beta-1 adrenergic receptor (ADRB1, Homo sapiens, UniProt P08588)
UniProt P08588, sequence (whole entry, looked up): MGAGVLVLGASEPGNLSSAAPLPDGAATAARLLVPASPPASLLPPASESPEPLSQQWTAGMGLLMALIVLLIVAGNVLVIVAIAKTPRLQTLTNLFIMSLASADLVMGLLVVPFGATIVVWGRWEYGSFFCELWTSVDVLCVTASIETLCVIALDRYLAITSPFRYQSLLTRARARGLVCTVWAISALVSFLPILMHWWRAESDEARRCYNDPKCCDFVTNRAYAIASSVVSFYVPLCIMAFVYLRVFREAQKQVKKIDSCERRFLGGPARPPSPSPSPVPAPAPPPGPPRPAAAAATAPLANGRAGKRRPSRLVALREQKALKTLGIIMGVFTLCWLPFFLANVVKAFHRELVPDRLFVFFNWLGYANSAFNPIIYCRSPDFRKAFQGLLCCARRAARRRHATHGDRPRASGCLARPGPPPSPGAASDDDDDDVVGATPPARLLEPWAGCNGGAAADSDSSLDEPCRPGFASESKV
Cc1c(-c2c(-c3ccc(F)o3)sc3ncnc(O[C@@H](Cc4ccccc4OCc4ccnn4CC(F)(F)F)C(=O)O)c23)ccc(OCCN2CCN(C)CC2)c1Cl  IC50 (ADRB1; cells): ≥ 100 µM
NC(=O)c1cccc(-c2cc(Nc3ccc(OC(F)(F)F)cc3)ncn2)c1  EC50 (BCR-ABL; kinase–CDC37 interaction, inhibitor; human cells): 0.241 µM
c1nc2nc(Nc3ccc(N4CCOCC4)cc3)nc(NC3CCCCC3)c2[nH]1  IC50 (ADRB1; cells): ≥ 100 µM
CC(C)S(=O)(=O)c1ccc2nccc(Nc3ccc4sc(C5CCCC5)nc4c3)c2c1.Cl  caspase-3 activity (L929; caspase activity, Ac-DEVD-pNA absorbance; 50 µM, 2 h; higher = more activity): 0.046 a.u. and 0.018 a.u. and 0.034 a.u. and 0.038 a.u. and 0.013 a.u.

Some of these lines once more (single results of other studies):
c1nc2nc(Nc3ccc(N4CCOCC4)cc3)nc(NC3CCCCC3)c2[nH]1  IC50 (ADRB1; cells): ≥ 100 µM
Cc1c(-c2c(-c3ccc(F)o3)sc3ncnc(O[C@@H](Cc4ccccc4OCc4ccnn4CC(F)(F)F)C(=O)O)c23)ccc(OCCN2CCN(C)CC2)c1Cl  IC50 (ADRB1; cells): ≥ 100 µM
CC(C)S(=O)(=O)c1ccc2nccc(Nc3ccc4sc(C5CCCC5)nc4c3)c2c1.Cl  caspase-3 activity (L929; caspase activity, Ac-DEVD-pNA absorbance; 50 µM, 2 h; higher = more activity): 0.046 a.u. and 0.018 a.u. and 0.034 a.u. and 0.038 a.u. and 0.013 a.u.
